Experimental data of several laboratories.
Parts stem from different laboratories: compare values within a part only.
Chain of UniProt P10721 (whole entry, unmodified, looked up): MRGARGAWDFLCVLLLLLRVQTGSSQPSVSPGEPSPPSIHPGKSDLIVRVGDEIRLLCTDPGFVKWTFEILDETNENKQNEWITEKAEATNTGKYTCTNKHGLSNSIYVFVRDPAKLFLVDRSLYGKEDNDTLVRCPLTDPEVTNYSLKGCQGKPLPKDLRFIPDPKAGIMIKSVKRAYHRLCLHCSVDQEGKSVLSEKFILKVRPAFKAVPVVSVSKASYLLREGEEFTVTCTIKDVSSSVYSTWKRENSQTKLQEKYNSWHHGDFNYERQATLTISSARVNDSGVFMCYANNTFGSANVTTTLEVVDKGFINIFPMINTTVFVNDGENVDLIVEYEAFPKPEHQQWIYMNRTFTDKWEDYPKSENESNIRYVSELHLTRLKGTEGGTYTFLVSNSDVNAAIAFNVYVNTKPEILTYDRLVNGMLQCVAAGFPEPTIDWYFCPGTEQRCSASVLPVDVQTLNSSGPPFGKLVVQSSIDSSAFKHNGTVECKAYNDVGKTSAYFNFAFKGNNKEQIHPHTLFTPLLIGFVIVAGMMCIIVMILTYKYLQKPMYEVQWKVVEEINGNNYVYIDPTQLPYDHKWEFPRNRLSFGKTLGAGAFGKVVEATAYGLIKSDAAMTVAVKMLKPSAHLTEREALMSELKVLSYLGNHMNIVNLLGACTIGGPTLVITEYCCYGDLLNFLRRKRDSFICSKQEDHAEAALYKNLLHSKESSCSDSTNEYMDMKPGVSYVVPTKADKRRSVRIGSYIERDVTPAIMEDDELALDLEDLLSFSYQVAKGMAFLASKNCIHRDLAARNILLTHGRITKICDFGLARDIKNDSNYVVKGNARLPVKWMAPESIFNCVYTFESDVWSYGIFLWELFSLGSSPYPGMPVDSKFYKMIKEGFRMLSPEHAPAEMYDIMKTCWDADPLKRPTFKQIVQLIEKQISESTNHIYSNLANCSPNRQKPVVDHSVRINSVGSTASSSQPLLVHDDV
Chain of UniProt Q9Y243 (whole entry, looked up): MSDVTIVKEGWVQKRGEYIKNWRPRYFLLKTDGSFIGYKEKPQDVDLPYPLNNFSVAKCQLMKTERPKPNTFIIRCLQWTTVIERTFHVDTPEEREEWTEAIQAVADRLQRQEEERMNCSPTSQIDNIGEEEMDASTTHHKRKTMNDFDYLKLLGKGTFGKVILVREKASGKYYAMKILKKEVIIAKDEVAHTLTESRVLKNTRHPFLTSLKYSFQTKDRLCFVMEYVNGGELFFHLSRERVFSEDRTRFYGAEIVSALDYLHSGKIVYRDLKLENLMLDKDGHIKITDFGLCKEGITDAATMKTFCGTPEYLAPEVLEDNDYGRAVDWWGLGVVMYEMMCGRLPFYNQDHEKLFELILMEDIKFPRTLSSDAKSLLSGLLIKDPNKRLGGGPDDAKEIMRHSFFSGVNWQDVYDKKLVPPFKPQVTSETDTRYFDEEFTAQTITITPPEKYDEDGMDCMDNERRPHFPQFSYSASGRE
Chain of UniProt Q9HBH9 (whole entry, looked up): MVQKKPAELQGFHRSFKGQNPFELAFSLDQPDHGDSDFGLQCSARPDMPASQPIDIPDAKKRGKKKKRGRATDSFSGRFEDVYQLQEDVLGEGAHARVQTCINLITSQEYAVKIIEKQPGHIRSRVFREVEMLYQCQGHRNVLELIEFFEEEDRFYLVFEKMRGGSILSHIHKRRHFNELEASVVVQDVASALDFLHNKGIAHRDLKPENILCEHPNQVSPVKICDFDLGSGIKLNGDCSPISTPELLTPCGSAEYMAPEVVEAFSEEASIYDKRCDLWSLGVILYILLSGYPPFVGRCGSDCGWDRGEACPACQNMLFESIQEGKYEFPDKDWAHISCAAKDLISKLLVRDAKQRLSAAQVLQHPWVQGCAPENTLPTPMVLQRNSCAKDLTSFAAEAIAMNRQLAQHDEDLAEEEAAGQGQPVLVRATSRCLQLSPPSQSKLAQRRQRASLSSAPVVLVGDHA
Chain of UniProt P68400 (whole entry, looked up): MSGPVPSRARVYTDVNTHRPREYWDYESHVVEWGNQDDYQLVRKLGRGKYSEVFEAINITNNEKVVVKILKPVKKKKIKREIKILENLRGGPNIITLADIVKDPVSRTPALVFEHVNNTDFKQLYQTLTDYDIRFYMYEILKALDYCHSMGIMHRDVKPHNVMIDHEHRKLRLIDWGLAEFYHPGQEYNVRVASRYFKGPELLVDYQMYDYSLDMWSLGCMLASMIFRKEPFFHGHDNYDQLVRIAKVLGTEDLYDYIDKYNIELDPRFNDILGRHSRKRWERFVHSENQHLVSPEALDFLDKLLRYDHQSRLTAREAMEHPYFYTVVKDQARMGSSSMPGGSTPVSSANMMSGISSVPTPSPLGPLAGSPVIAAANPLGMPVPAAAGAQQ
Chain of UniProt P42336 (whole entry, unmodified, looked up): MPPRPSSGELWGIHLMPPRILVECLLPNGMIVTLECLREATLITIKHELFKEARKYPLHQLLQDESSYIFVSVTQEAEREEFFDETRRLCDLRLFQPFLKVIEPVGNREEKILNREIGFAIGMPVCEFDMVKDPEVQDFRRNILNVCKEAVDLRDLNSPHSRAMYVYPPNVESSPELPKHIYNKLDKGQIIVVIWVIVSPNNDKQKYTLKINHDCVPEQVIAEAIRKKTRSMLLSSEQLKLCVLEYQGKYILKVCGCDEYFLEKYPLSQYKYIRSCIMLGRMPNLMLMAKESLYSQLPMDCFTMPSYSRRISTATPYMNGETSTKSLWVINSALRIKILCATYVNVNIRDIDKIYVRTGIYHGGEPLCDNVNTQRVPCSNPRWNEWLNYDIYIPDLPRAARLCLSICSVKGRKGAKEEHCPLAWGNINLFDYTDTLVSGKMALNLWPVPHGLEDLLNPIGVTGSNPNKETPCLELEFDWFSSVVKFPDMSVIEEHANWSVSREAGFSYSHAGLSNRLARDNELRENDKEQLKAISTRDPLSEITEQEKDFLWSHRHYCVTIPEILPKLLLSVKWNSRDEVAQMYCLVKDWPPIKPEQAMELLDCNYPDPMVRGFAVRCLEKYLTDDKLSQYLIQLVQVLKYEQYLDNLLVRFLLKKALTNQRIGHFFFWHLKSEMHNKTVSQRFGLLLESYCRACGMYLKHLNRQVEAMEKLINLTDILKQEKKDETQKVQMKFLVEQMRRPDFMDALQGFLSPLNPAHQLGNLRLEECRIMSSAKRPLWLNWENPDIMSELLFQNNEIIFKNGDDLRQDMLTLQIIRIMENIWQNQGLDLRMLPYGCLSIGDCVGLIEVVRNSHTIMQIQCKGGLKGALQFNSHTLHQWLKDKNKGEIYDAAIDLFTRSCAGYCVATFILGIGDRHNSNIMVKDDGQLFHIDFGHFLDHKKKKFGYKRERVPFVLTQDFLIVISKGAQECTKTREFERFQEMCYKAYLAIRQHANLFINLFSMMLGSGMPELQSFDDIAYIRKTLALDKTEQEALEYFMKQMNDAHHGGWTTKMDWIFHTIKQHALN
Chain of UniProt Q9Y2U5 (whole entry, looked up): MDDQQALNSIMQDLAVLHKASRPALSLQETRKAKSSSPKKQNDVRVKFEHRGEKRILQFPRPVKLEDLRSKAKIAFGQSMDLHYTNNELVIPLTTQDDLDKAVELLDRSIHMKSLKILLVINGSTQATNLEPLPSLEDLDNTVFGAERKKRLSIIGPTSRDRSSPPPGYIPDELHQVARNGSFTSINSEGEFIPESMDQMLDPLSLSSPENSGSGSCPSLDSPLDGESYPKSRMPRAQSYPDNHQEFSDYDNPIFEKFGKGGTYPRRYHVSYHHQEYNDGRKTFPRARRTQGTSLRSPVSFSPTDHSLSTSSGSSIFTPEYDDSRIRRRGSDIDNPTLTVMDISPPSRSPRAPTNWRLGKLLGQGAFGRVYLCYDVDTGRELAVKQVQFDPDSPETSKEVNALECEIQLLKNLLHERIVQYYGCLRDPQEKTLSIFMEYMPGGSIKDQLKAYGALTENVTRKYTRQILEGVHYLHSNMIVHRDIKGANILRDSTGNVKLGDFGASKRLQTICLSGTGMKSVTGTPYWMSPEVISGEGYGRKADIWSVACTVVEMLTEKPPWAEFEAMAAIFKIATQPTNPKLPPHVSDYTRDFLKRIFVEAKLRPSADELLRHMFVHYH
Chain of UniProt P51957 (whole entry, looked up): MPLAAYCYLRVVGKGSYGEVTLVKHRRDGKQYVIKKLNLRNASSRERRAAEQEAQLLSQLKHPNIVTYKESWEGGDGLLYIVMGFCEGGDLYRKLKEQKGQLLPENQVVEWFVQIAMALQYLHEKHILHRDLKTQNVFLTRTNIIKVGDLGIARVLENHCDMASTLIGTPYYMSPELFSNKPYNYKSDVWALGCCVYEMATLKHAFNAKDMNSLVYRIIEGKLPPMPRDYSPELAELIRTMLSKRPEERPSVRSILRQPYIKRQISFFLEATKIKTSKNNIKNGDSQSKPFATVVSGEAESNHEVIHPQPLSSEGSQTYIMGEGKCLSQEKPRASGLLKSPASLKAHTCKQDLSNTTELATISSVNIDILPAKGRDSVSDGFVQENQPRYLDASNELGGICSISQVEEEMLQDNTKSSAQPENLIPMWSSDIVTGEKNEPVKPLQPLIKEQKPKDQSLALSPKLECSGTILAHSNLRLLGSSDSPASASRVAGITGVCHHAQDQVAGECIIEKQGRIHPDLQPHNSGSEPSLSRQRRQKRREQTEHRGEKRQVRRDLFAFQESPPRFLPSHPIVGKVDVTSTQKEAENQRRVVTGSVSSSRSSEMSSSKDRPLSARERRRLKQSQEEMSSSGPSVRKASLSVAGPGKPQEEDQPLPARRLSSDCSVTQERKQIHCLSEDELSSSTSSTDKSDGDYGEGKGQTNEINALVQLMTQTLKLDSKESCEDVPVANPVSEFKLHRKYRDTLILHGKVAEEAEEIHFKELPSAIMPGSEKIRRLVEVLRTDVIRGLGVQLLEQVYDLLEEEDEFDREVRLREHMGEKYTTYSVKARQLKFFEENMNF

Study 1 — observed: cell-free assay; technique: competition with immobilised ligand; concentration: 1 µM; measurement: remaining binding
SMILES: CNCc1ccccc1-c1csc([C@@H](C)Nc2nc(C)nc3cc(OC)c(OC)cc23)c1
PIK3CA (Homo sapiens, UniProt P42336, Q546K): 89%
EGFR (Homo sapiens, UniProt P00533, T790M): 68%
MAP3K9 (Homo sapiens, UniProt P80192): 98%
Non-receptor tyrosine-protein kinase TYK2, JH1 (TYK2, Homo sapiens, UniProt P29597): 99%
MAP3K2 (Homo sapiens, UniProt Q9Y2U5): 87%
PTK6 (Homo sapiens, UniProt Q13882): 100%
Ribosomal protein S6 kinase alpha-5, N-terminal kinase domain (RPS6KA5, Homo sapiens, UniProt O75582): 100%
ULK3 (Homo sapiens, UniProt Q6PHR2): 78%
AKT3 (Homo sapiens, UniProt Q9Y243): 92%
CHEK2 (Homo sapiens, UniProt O96017): 76%
KIT (Homo sapiens, UniProt P10721, V559D/V654A): 89%
CDKL2 (Homo sapiens, UniProt Q92772): 99%
EPHA8 (Homo sapiens, UniProt P29322): 100%
CHUK (Homo sapiens, UniProt O15111): 100%
PKN2 (Homo sapiens, UniProt Q16513): 89%

Study 2 — host: idiopathic pulmonary fibrosis patients; measurement: adverse event incidence
SMILES: CC(C)n1cnc(-c2ccc(F)cc2)c1-c1ncc(C(=O)Nc2ccc(N3CCN(C)CC3)cc2)[nH]1
phase 2a trial, refers to: QRS axis abnormal; 30 mg once daily, grade 5: 0%
phase 2a trial, refers to: drug eruption; 60 mg once daily, grade 4: 0%
phase 2a trial, refers to: liver injury; 30 mg once daily, grade 2: 0%
phase 2a trial, refers to: appendicitis; 60 mg once daily, grade 3: 0%
phase 2a trial, refers to: synovitis; 60 mg once daily, grade 5: 0%
phase 2a trial, refers to: QRS axis abnormal; 30 mg once daily, grade 4: 0%
phase 2a trial, refers to: hydroxybutyrate dehydrogenase increased; dose not given, grade 2, all arms pooled: 0%
30 mg twice daily, any adverse event, together with: standard of care: 75%
phase 2a trial, refers to: ventricular extrasystoles; 30 mg once daily, grade 1: 0%
phase 2a trial, refers to: appendicitis; 30 mg once daily, grade 4: 0%
phase 2a trial, refers to: chronic gastritis; 60 mg once daily, grade 3: 0%
phase 2a trial, refers to: carotid intima-media thickening; dose not given, grade 3, all arms pooled: 0%

Study 3 — cell line: A-375; concentration: 100 µM; time: 18 h; measurement: viability
CC1(C)O[C@@H]2[C@@H](CO[C@@]3(COS(N)(=O)=O)OC(C)(C)O[C@@H]23)O1: 95.6%
COc1ccc(C(=O)NCc2ccc(OCCN(C)C)cc2)cc1OC: 91.5%
N[C@@H](CC(=O)N1CCn2c(nnc2C(F)(F)F)C1)Cc1cc(F)c(F)cc1F: 81.7%
O=C(COc1ccc(Cl)cc1)N1CCN(Cc2ccc3c(c2)OCO3)CC1: 78.4%
CN(C)C(=O)COC(=O)Cc1ccc(OC(=O)c2ccc(NC(=N)N)cc2)cc1: 98.7%
CCCc1cc(C(N)=S)ccn1: 111%
CC1(C)NC(=O)N(c2ccc([N+](=O)[O-])c(C(F)(F)F)c2)C1=O: 89.5%
CC(=O)CCCCn1c(=O)c2c(ncn2C)n(C)c1=O: 100%
CC(C)(C)NCC(O)c1cc(O)cc(O)c1 (stereo not shown): 103%
O=c1cc(-c2ccc(O)cc2)oc2cc(O)cc(O)c12: 84.9%
Nc1ccccc1S(N)(=O)=O: 97.5%

Study 4 — Structure (SMILES): O=C(Nc1ccc(Cl)cc1)c1ccccc1NCc1ccncc1; observed: enzyme activity; action: inhibitor; concentration: 0.5 µM; baseline: control; measurement: remaining activity
MAP3K10 (Homo sapiens, UniProt Q02779): 104%
IRAK4 (Homo sapiens, UniProt Q9NWZ3): 104%
PLK2 (Homo sapiens, UniProt Q9NYY3): 99.3%
AKT3 (Homo sapiens, UniProt Q9Y243): 97.9%
NEK4 (Homo sapiens, UniProt P51957): 85.8%
CHEK1 (Homo sapiens, UniProt O14757): 96.4%
KIT (Homo sapiens, UniProt P10721): 33.6%
CSNK1A1 (Homo sapiens, UniProt P48729): 88.1%
MKNK2 (Homo sapiens, UniProt Q9HBH9): 82.3%
STK38 (Homo sapiens, UniProt Q15208): 97.5%
PRKG1 (Homo sapiens, UniProt Q13976): 86.8%
Cyclin-dependent kinase 9, with cyclin T1 (CDK9, Homo sapiens, UniProt P50750): 81.9%
EPHA5 (Homo sapiens, UniProt P54756): 82.1%
CSNK2A1 (Homo sapiens, UniProt P68400): 91.1%

For quick reference, copied from above (study 4):
MAP3K10 (Homo sapiens, UniProt Q02779): 104%
IRAK4 (Homo sapiens, UniProt Q9NWZ3): 104%
MKNK2 (Homo sapiens, UniProt Q9HBH9): 82.3%
